Measurements of several laboratories.
A part holds a random share of what one study measured. Substitutions count along the parent as printed.
Sequence of UniProt Q15746 (whole entry, looked up): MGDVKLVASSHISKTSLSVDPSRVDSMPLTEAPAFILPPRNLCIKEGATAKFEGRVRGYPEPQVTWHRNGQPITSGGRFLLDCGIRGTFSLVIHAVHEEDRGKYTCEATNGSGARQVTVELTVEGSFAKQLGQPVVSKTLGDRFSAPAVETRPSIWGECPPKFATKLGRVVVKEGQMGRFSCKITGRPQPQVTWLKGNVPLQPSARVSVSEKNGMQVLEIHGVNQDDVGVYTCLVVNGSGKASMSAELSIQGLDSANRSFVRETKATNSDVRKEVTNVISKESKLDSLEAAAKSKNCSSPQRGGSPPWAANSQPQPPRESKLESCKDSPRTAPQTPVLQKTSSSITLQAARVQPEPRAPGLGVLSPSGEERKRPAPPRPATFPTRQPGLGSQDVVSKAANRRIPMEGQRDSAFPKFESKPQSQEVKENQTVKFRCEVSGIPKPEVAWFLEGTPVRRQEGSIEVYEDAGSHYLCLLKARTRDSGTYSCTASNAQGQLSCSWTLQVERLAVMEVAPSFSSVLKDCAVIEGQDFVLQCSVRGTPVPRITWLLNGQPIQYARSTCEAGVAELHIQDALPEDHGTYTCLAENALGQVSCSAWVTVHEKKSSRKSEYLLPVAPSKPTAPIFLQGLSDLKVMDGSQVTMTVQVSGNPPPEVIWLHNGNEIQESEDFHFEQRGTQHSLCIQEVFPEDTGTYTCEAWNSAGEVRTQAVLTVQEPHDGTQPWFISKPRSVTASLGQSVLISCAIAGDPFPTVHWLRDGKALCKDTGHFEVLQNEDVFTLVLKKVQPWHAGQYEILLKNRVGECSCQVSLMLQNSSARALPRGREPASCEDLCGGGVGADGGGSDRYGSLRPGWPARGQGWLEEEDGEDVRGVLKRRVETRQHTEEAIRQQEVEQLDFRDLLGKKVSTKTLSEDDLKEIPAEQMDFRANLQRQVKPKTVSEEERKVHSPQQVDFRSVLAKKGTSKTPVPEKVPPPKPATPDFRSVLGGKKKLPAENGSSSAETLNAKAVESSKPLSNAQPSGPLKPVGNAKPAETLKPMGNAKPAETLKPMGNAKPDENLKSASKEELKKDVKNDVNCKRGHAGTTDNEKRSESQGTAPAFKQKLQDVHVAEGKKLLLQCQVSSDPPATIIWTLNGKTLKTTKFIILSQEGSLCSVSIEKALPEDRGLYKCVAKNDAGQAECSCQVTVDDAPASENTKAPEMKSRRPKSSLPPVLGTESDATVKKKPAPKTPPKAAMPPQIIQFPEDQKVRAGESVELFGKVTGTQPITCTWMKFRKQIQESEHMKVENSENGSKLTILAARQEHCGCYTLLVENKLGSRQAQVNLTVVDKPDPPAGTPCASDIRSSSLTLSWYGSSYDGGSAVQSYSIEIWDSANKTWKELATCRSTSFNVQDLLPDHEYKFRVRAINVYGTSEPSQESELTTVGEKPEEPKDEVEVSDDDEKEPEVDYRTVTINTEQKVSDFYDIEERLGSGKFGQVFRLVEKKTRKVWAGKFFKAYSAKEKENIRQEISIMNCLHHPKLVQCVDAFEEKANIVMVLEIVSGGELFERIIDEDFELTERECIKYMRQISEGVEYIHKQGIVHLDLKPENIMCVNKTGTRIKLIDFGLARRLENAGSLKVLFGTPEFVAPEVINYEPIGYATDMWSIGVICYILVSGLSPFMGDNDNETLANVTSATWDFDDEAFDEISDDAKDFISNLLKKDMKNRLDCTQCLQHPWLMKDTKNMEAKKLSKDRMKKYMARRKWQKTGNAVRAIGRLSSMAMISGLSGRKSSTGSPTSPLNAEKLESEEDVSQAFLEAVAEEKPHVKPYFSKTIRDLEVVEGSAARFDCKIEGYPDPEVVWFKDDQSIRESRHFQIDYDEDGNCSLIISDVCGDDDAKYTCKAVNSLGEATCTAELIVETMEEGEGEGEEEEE
Sequence of UniProt P45985 (whole entry, looked up): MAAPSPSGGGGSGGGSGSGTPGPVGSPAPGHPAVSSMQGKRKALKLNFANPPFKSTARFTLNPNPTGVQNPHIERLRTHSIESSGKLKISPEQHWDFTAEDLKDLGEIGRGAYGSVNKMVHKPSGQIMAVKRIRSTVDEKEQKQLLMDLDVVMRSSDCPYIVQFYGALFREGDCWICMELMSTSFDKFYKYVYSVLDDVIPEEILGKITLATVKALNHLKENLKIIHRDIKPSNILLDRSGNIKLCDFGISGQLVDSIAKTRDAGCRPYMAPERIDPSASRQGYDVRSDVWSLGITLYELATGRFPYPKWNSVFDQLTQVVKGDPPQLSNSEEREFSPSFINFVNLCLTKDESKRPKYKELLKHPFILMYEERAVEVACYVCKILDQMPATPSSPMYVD
Sequence of UniProt Q9Y6M4 (whole entry, looked up): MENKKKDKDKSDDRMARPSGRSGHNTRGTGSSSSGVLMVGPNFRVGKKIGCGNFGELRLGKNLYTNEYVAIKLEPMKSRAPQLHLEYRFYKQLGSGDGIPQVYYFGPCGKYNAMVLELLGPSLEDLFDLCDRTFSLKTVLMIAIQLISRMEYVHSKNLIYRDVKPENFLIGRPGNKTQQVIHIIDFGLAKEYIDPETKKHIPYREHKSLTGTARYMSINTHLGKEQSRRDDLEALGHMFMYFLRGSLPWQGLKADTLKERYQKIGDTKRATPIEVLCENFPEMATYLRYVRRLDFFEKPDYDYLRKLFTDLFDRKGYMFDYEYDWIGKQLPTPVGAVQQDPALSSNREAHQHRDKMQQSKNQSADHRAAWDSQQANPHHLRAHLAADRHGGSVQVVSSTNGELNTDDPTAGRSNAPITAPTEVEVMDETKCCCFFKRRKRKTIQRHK
Sequence of UniProt P06239 (whole entry, looked up): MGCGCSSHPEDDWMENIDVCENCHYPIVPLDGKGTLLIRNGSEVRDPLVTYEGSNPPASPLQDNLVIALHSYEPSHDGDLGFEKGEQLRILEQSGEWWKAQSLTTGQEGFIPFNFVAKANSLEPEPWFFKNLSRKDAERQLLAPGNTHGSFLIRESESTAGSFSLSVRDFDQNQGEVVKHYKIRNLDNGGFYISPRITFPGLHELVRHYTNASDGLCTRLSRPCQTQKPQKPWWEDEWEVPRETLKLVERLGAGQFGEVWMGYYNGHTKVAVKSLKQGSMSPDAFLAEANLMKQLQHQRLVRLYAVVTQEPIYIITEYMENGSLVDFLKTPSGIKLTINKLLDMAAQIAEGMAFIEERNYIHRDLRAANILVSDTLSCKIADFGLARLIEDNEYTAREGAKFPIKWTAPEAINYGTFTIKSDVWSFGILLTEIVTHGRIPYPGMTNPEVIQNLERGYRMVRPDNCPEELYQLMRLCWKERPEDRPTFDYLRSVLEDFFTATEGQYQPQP
Sequence of UniProt Q13131 (whole entry, looked up): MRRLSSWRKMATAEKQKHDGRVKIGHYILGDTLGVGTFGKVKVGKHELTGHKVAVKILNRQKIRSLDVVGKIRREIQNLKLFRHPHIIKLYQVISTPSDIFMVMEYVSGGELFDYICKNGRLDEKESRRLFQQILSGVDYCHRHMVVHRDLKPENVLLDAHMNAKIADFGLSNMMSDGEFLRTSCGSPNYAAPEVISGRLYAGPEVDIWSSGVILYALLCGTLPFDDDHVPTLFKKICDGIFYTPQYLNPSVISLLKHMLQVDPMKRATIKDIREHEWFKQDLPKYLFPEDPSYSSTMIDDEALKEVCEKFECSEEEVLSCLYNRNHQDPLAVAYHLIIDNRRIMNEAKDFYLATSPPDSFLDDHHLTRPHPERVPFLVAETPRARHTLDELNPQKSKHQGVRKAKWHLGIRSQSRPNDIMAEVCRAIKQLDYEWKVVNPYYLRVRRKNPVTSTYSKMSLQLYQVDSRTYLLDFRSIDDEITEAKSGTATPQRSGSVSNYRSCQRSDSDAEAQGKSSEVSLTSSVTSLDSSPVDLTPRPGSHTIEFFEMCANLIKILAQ
Sequence of UniProt Q92918 (whole entry, looked up): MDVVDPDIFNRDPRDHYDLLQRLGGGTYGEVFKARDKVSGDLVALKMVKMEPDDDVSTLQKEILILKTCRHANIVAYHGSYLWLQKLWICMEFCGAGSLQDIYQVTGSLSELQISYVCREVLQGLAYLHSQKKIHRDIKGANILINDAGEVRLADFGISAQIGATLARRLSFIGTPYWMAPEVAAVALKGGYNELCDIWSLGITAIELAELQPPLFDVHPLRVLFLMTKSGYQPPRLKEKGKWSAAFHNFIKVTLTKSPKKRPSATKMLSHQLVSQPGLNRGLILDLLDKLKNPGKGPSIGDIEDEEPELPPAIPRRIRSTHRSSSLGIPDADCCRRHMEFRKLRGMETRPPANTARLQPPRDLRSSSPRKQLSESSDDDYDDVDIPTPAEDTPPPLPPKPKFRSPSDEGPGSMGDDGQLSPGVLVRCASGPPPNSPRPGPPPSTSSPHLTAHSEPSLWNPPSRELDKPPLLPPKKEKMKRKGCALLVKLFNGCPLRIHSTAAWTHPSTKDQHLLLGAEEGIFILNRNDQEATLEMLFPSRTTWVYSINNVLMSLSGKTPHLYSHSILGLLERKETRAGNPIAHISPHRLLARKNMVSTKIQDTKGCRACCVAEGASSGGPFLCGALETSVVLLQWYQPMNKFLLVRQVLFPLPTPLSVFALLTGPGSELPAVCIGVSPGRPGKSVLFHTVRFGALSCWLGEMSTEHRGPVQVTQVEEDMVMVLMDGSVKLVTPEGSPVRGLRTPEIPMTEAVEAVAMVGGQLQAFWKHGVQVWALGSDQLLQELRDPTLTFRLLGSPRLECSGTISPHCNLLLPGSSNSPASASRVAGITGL
Sequence of UniProt P52564 (whole entry, looked up): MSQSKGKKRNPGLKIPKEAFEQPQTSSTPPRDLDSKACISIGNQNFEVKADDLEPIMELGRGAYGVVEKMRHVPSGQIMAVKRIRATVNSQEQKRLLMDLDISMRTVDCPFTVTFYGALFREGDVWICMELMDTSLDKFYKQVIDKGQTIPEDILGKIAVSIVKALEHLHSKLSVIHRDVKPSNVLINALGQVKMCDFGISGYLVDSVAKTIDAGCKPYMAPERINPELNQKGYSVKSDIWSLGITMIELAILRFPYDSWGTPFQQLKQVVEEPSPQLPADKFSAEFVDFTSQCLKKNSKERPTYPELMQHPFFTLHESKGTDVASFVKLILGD

Study 1 — target: CEP164, C-terminal peptide (human); method: DHFR complementation, deep sequencing; medium: yeast; baseline: wild type; direction: higher = weaker binding
Notes: single substitutions, model-inferred values
Parent: PDZK1, PDZ domain 2 (human); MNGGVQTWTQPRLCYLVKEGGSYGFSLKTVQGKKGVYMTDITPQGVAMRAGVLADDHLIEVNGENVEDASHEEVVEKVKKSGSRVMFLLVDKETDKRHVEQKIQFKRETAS; partner HNRVKVYRF
| Variant | binding free energy change [kJ/mol] |
| --- | --- |
| L58F | 0.264 |
| G45R | 4.83 |
| D40M | 3.93 |
| D91Y | 0.328 |
| L53G | 2.49 |
| T42E | 0.0789 |
| E93G | 0.00169 |
| Y23A | 5.35 |

Study 2 — SMILES: O=c1nc(-c2ccccn2)sc2ccccc12; method: competition with immobilised ligand; concentration: 1 µM
| target | observed | remaining binding |
| --- | --- | --- |
| Tyrosine-protein kinase ABL1, non-phosphorylated (ABL1, Homo sapiens, UniProt P00519, F317I) | binding | 100% |
| Casein kinase I isoform gamma-3 (CSNK1G3, Homo sapiens, UniProt Q9Y6M4) | cell-free assay | 100% |
| Protein kinase C iota type (PRKCI, Homo sapiens, UniProt P41743) | cell-free assay | 100% |
| Tyrosine-protein kinase JAK1, JH1 (JAK1, Homo sapiens, UniProt P23458) | binding | 71% |
| Tyrosine-protein kinase Lck (LCK, Homo sapiens, UniProt P06239) | binding | 95% |
| Mitogen-activated protein kinase kinase kinase kinase 1 (MAP4K1, Homo sapiens, UniProt Q92918) | binding | 100% |
| Receptor-type tyrosine-protein kinase FLT3 (FLT3, Homo sapiens, UniProt P36888, F691L/ITD) | binding | 100% |
| Myosin light chain kinase, smooth muscle (MYLK, Homo sapiens, UniProt Q15746) | binding | 67% |
| Dual specificity mitogen-activated protein kinase kinase 4 (MAP2K4, Homo sapiens, UniProt P45985) | binding | 100% |
| Phosphatidylinositol 4,5-bisphosphate 3-kinase catalytic subunit alpha isoform (PIK3CA, Homo sapiens, UniProt P42336, I800L) | cell-free assay | 84% |
| 5'-AMP-activated protein kinase catalytic subunit alpha-1 (PRKAA1, Homo sapiens, UniProt Q13131) | cell-free assay | 100% |
| Dual specificity mitogen-activated protein kinase kinase 6 (MAP2K6, Homo sapiens, UniProt P52564) | binding | 100% |

Study 3 — observed: enzyme activity; mode: inhibitor; concentration: 0.5 µM; baseline: control
Target: Ephrin type-A receptor 3 (EPHA3, Homo sapiens, UniProt P29320)
Residues (P29320 1-983): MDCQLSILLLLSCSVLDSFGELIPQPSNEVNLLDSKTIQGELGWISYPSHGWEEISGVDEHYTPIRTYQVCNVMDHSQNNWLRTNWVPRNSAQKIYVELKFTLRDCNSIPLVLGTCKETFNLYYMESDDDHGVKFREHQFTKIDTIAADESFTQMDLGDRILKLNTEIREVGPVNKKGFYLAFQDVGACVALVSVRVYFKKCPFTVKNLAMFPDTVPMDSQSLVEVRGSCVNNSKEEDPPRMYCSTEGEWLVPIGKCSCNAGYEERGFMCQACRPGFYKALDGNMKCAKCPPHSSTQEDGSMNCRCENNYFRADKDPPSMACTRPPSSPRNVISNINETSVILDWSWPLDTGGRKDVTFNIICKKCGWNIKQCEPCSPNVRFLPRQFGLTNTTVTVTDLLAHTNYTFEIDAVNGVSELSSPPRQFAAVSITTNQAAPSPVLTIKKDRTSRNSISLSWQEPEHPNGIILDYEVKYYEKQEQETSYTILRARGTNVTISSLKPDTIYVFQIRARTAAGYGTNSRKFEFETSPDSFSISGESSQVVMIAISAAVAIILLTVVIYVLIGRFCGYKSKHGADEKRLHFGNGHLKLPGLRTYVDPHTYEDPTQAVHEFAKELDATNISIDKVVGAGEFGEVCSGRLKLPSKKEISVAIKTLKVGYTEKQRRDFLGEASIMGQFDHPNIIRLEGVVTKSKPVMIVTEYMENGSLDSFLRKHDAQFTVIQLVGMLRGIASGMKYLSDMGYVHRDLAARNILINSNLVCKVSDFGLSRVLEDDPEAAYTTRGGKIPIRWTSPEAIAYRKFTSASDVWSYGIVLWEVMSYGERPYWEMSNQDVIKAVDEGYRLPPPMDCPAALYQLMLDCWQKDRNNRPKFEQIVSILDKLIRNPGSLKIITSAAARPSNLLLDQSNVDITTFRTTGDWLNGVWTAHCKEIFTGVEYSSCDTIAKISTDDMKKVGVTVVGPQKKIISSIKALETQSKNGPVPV
| Structure (SMILES) | remaining activity [%] |
| --- | --- |
| CC(C)[C@H](CO)Nc1nc(Nc2cc(N)cc(Cl)c2)c2ncn(C(C)C)c2n1 | 86.6 |
| O=S(=O)(c1cccc2cnccc12)N1CCCNCC1 | 105 |
| CNC(=O)c1cc(Oc2ccc(NC(=O)Nc3ccc(Cl)c(C(F)(F)F)c3)cc2)ccn1 | 95.5 |
| Nc1ncnc2n[nH]c(Nc3ccc(F)cc3)c12 | 107 |

Other studies, line by line — method: cross-linking MS
| Molecule | partner | medium | notes | with | quantity | result |
| --- | --- | --- | --- | --- | --- | --- |
| EPRS1 (Homo sapiens, UniProt P07814) | ARFGAP2 (Homo sapiens, UniProt Q8N6H7) | cell fractions | – | DSSO | cross-linked residues | K861 to K263 |
| PRPF38A (Homo sapiens, UniProt Q8NAV1) | ZMAT2 (Homo sapiens, UniProt Q96NC0) | cell fractions | – | DSSO | cross-linked residues | K7 to K102 |
| SEPTIN6 (Homo sapiens, UniProt Q14141) | SEPTIN7 (Homo sapiens, UniProt Q16181) | – | hits only | – | interaction screen | cross-linked |
| HSP90B1 (Homo sapiens, UniProt P14625) | CHID1 (Homo sapiens, UniProt Q9BWS9) | cell fractions | – | DSSO | cross-linked residues | K597 to K361 |

A few entries again (study 1):
| Variant | binding free energy change [kJ/mol] |
| --- | --- |
| D91Y | 0.328 |
| L58F | 0.264 |
| E93G | 0.00169 |
| Y23A | 5.35 |
